# Experimental data of several laboratories.
# Organism: Staphylococcus aureus
SMILES,assay,system,conditions,how to read,measurement,result
CCOC(=O)c1cnc(N/N=C/c2c(-c3ccc(F)cc3)nc3ncccn23)s1,"microbial growth, well diffusion",ATCC23235,100 µg/mL,,inhibition zone,12 mm
CCCCc1ccc(-c2nc(C)c(C(C)=NNC(=N)N)s2)cc1,,NRS37 VISA,,,MBC,2.6 µg/mL
C[C@H](NC(=O)[C@H](CCCCN)NC(=O)[C@H](CCCCN)NC(=O)[C@H](CCC(=O)O)NC(=O)[C@@H]1CCCN1)C(=O)N[C@@H](CCCCN)C(=O)N[C@@H](CCCCN)C(=O)N[C@@H](CCCCN)C(=O)O,OD600,methicillin-resistant DMST 20646,"concentration not given, 18 to 22 h, 37 °C, unheated",,growth inhibition,29.4%
CC[C@H](C)[C@@H]1NC(=O)CNC(=O)CNC(=O)[C@H](CO)NC(=O)[C@H]([C@@H](C)CC)NC(=O)[C@H](CCCCN)NC(=O)[C@H](CO)NC(=O)[C@H](CC(C)C)NC(=O)[C@@H](C(C)C)NC(=O)[C@@H]2CCCN2C(=O)[C@H]([C@@H](C)CC)NC(=O)[C@H](C(C)C)NC(=O)[C@H](CC(C)C)NC(=O)[C@@H]2CCCN2C(=O)CNC1=O,,ATCC 25923,"MIC, 2 h",,log reduction in CFU,3 log
O=C(c1ccccc1O)c1[nH]c(Cl)c(Cl)c1-n1c(C(=O)c2ccccc2O)cc(Cl)c1Cl,,NCTC 8325,"1 × MIC, 10 min",,intracellular pH,7.5
CC(CCCOC(=O)CCC[N+](C)(C)C)C1CCC2C3CCC4CC(OC(=O)CCC[N+](C)(C)C)CCC4(C)C3CCC12C (stereo not shown),,"MRSA ATCC BAA-44, mouse red blood cells",,relative to: HC50 over MIC,selectivity index,20
CC[C@H](C)[C@H](NC(=O)[C@H](CCCCN)NC(=O)[C@H](CCCCN)NC(=O)[C@H](Cc1c[nH]c2ccccc12)NC(=O)[C@H](CC(N)=O)NC(=O)[C@@H](N)C(C)C)C(=O)N[C@@H](CC(C)C)C(=O)NCC(=O)N[C@@H](CCCCN)C(=O)N[C@H](C(=O)N[C@H](C(=O)N[C@@H](CCCCN)C(=O)N[C@H](C(=O)N[C@H](C(=O)N[C@@H](CCCCN)C(N)=O)C(C)C)C(C)C)[C@@H](C)CC)[C@@H](C)CC,,"MRSA AMC 201, RPMI medium","24 h, 37 °C",,LC99.9,3.7 µM
Fc1cc2nc3c4cccnc4c4ncccc4c3nc2cc1F.[Cl-].[Cl-].[Ru+2].c1ccncc1.c1ccncc1.c1ccncc1.c1ccncc1,,MRSA ATCC 43300,"10 µM, 20 min, added: light 470 nm",,CFU reduction,> 4 log CFU
C[C@H]1COc2c(N3CCN(C)CC3)c(F)cc3c(=O)c(C(=O)N[C@@H](CCCNC(=N)N)C(=O)N[C@@H](Cc4ccc(-c5ccccc5)cc4)C(=O)N[C@@H](CCCNC(=N)N)C(=O)N[C@@H](Cc4ccc(-c5ccccc5)cc4)C(=O)N[C@@H](CCCNC(=N)N)C(N)=O)cn1c23,,ATCC BAA-44,,relative to: IC50 MDCK cells over MIC,selectivity index,4.4
CCCCCCCCCCCCCCCCNC(=N)NC(=N)NCCCCCCNC(=O)[C@H]1NC(=O)[C@H]2NC(=O)[C@H](NC(=O)[C@@H]3NC(=O)[C@H](CC(N)=O)NC(=O)[C@H](NC(=O)[C@@H](CC(C)C)NC)[C@H](O)c4ccc(c(Cl)c4)Oc4cc3cc(c4O[C@@H]3O[C@H](CO)[C@@H](O)[C@H](O)[C@H]3O[C@H]3C[C@](C)(N)[C@H](O)[C@H](C)O3)Oc3ccc(cc3Cl)[C@H]2O)c2ccc(O)c(c2)-c2c(O)cc(O)cc21,,29213,biofilm,,MBEC,> 128 µM
